Assay results collected from several papers.
Each numbered part is a random draw from the data of one study; scales do not carry over between parts. “And” joins repeats or separate records; there may be more than shown.

Series 1
Target: Inhibitor of nuclear factor kappa-B kinase subunit alpha (CHUK, Homo sapiens, UniProt O15111)
Observed: enzyme activity
Action: inhibitor
Concentration: 0.5 µM
Baseline: control
Residues (O15111 1-745): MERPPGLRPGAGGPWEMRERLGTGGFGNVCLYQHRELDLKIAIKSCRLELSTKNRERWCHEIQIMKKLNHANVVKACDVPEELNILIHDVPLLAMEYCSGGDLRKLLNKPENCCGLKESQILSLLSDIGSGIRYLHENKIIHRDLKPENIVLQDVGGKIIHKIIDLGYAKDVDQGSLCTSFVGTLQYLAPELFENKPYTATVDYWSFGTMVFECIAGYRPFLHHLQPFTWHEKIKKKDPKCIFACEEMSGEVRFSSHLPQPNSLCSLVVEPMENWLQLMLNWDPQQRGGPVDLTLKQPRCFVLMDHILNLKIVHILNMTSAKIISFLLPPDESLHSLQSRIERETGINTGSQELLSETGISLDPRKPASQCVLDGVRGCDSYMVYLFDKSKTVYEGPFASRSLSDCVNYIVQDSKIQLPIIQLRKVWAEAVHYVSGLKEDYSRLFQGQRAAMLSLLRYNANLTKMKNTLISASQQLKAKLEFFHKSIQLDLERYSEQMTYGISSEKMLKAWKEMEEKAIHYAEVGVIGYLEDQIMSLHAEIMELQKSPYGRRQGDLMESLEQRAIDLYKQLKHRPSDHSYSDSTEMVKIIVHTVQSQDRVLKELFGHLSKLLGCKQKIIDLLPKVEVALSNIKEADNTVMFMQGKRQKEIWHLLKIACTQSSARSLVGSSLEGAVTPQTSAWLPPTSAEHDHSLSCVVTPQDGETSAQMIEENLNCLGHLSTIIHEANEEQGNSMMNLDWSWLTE
SMILES	remaining activity [%]
COc1cc2ncc(-c3ccccc3)nc2cc1OC	113
CC(C)c1nn(-c2c(Cl)cccc2Cl)c2nc(Cc3ccc(OCCO)cc3)[nH]c(=O)c12	98.5
CC(=O)O/N=C1/C(c2c(O)[nH]c3cc(Br)ccc23)=Nc2ccccc21	98.3
CCOc1cc2ncnc(Nc3cccc(Br)c3)c2cc1OCC	105
CS(=O)(=O)CCNCc1ccc(-c2ccc3ncnc(Nc4ccc(OCc5cccc(F)c5)c(Cl)c4)c3c2)o1	99.5
COc1ccc(Cl)cc1NC(=O)Nc1cc(C)nc2ccccc12	100
Cn1cc(/C=C2\C(=O)Nc3ccc(S(N)(=O)=O)cc32)c2ccccc21	109
CCN1/C(=C/C(C)=O)Sc2ccc(OC)cc21	89.9
CCC(=O)Nc1ccc2ncnc(Nc3cccc(Br)c3)c2c1	99.3
C[S+]([O-])c1ccc(-c2nc(-c3ccncc3)c(-c3ccc(F)cc3)[nH]2)cc1 (centres unmarked)	100
COc1cc2ncnc(Nc3ccc(OCc4ccccc4)cc3)c2cc1OC	95.1
O=C(Nc1ccc(Cl)cc1)c1ccccc1NCc1ccncc1	104
O=c1cc(N2CCOCC2)oc2c1ccc1ccccc12	93.4
COc1ccc(-c2cnc3c(-c4ccsc4)cnn3c2)cc1	94.5
Cc1nc(Nc2ncc(C(=O)Nc3c(C)cccc3Cl)s2)cc(N2CCN(CCO)CC2)n1	95
O=C1NC(=O)/C(=C/c2ccc3nccnc3c2)S1	86.7
Nc1[nH]nc2nnc(-c3c(-c4ccccc4)nn4ccccc34)cc12	97.5
COc1cc2ncnc(N3CCN(C(=O)Nc4ccc(Oc5ccccc5)cc4)CC3)c2cc1OC	96
CN(C)CCCn1cc(C2=C(c3c[nH]c4ccccc34)C(=O)NC2=O)c2ccccc21	105
CC(C)[C@H](CO)Nc1nc(Nc2cccc(Cl)c2)c2ncn(C(C)C)c2n1	106
Cn1cnc2cc3c(Nc4cccc(Br)c4)ncnc3cc21	89.7

Series 2
Target: Eukaryotic initiation factor 4A-III (Homo sapiens, UniProt P38919)
Sequence of UniProt P38919 (whole entry, looked up): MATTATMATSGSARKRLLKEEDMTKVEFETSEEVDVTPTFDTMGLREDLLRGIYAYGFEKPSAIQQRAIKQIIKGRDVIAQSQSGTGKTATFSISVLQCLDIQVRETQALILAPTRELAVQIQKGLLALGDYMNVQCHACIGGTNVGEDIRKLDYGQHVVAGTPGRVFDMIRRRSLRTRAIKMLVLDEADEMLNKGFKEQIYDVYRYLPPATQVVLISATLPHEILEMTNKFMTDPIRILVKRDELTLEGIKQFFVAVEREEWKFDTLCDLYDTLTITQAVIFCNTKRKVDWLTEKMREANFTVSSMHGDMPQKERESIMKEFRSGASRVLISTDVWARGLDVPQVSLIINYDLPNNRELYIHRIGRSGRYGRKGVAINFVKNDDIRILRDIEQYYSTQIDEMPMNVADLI
Observed: RNA clamping
Technique: fluorescence polarization
Concentration: concentration not given
Setting: mean of two replicates
Added: FAM-labelled poly r(AG)8 RNA
SMILES	fluorescence polarization change
COC(=O)/C=C/n1c(-c2ccccc2)nc2c(c1=O)[C@@H](c1ccccc1)[C@]1(c3ccc(OC)cc3)Oc3cc(OC)cc(OC)c3[C@]21O	9.9 mP
COC(=O)[C@H]1C(=O)[C@@]2(NCc3cccnc3)c3c(OC)cc(OC)cc3O[C@@]2(c2ccc(OC)cc2)[C@@H]1c1ccccc1	1.7 mP
COC(=O)[C@H]1[C@@H](O)[C@@]2(O)c3c(OC)cccc3N(C)[C@@]2(c2ccc(OC)cc2)[C@@H]1c1ccccc1	0.6 mP
COC(=O)[C@@H]1[C@@H](c2ccccc2)[C@]2(c3ccc(OC)cc3)Oc3cc(OC)cc(OC)c3[C@@]23NC(Cc2ccccc2)=N[C@@]13O	15.1 mP and 27.2 mP
COc1ccc([C@@]23Oc4cc(OC)cc(OC)c4[C@]2(O)[C@H](O)[C@H](C(=O)c2ccccc2)[C@H]3c2ccccc2)cc1	5.2 mP
O[C@@H]1C2(O)c3ccccc3O[C@]1(c1ccccc1)[C@@H](/C=C/c1ccccc1)[C@@H]2c1ccccc1	9.2 mP
COc1ccc([C@H]2[C@H](C(=O)N(C)C)[C@@H](O)[C@@]3(O)c4c(OC)cc(OC)cc4O[C@@]23c2ccc(OC)cc2)cc1	0.3 mP
CONC(=O)[C@H]1[C@@H](O)[C@@]2(O)c3c(OC)cc(O)cc3O[C@@]2(c2ccc(Br)cc2)[C@@H]1c1ccccc1	54.7 mP
COc1ccc([C@@]23Oc4cc(OC)cc(OC)c4[C@]2(O)[C@H](O)[C@H](C(=O)c2ccco2)[C@H]3c2cccc(OC)c2)cc1	16 mP
C#CCOc1nc(-c2ccccc2)nc2c1[C@@H](c1ccccc1)[C@]1(c3ccc(OC)cc3)Oc3cc(OCC(=O)OCC)cc(OC)c3[C@]21OCC(=O)OCC	6.7 mP
COc1cc(OC)c2c(c1)O[C@@]1(c3ccc(Br)cc3)[C@H](c3ccccc3)[C@@H](C(=O)N(C)OC)[C@@H](O)[C@@]21O	52 mP
COC(=O)CCCn1c(-c2ccccc2)nc2c(c1=O)[C@H](c1ccccc1)[C@]1(c3ccc(OC)cc3)Oc3cc(OC)cc(OC)c3[C@]21O	4.5 mP
O=C1C[C@@H](c2ccccc2)[C@]2(c3ccc(Br)cc3)Oc3cc(F)cc(F)c3[C@]12O	5.4 mP
COc1ccc([C@@]23Oc4cc(OS(=O)(=O)c5ccc(C)cc5)cc(OC)c4[C@]2(O)c2nc(-c4ccccc4)n(Cc4ccccc4)c(=O)c2[C@H]3c2ccccc2)cc1	1.2 mP

Series 3
Target: Calcium/calmodulin-dependent protein kinase type II subunit alpha (CAMK2A, Homo sapiens, UniProt Q9UQM7)
Sequence of UniProt Q9UQM7 (whole entry, looked up): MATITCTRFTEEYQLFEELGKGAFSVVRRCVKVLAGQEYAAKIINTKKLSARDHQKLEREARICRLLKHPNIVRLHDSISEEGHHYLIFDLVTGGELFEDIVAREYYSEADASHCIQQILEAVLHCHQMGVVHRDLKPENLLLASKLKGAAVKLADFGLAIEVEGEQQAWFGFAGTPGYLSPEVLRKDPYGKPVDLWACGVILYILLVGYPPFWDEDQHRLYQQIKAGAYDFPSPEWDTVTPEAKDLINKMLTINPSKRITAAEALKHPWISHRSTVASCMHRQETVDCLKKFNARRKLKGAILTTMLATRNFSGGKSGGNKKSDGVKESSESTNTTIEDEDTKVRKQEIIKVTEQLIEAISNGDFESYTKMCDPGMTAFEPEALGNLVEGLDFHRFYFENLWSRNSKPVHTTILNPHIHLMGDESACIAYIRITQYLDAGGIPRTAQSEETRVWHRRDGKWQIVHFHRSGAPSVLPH
Observed: enzyme activity
Action: inhibitor
Concentration: 10 µM
Structure (SMILES)	inhibition
C=C1CCC[C@]2(C)CC[C@@H](C(C)(C)O)C[C@@H]12	2%
COC(=O)c1ccccc1O	7%
CC(C)=CCC/C(C)=C/CC/C(C)=C/CO	-19%
O=C(O)C(=O)O	-0.15% and -0.12%
O=C(O)c1c(O)cc(O)cc1O	-18%
OC[C@H](O)C(O)[C@@H](O)CO	0%
Cc1cccc(O)c1O	-9%
O=C(O)CC(O)CC(=O)O	4%
CC(=O)O[C@@H]1[C@@H](O)[C@H](O[C@H]2CC[C@]34C[C@]35CC[C@]3(C)[C@@H]([C@@]6(C)CC[C@@H](C(C)(C)O)O6)[C@@H](O)C[C@@]3(C)[C@@H]5C[C@H](O[C@@H]3O[C@H](CO)[C@@H](O)[C@H](O)[C@H]3O)[C@H]4C2(C)C)OC[C@H]1O	-14%
C=C(C)[C@H](CC=C(C)C)Cc1c(O)cc(OC)c2c1O[C@H](c1ccc(O)cc1OC)CC2=O	5%
COc1cc(C[C@H]2C(=O)OC[C@@H]2Cc2ccc(OC)c(OC)c2)ccc1O	-33%
COc1ccc(CCN2CCC(Nc3nc4ccccc4n3Cc3ccc(F)cc3)CC2)cc1	-5%

Series 4
Target: 5-hydroxytryptamine receptor 2B (HTR2B, Homo sapiens, UniProt P41595)
Sequence of UniProt P41595 (whole entry, looked up): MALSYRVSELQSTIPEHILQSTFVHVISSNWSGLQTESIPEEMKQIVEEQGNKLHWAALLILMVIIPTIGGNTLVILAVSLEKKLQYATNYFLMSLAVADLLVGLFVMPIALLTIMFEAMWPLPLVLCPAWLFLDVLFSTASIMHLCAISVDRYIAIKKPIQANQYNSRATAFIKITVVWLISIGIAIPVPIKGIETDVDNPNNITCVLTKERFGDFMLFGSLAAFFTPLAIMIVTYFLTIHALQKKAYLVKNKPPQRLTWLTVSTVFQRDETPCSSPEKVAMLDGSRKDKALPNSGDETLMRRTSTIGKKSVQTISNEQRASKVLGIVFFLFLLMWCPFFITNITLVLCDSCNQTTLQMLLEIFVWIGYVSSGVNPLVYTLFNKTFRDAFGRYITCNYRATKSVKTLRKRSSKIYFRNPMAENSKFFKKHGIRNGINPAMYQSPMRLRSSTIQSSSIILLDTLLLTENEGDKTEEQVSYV
Observed: ligand displacement
Concentration: 10 µM
SMILES	inhibition [%]
CC(=O)C1=C(C)N(c2cccc(C(F)(F)F)c2)C(=O)N[C@H]1c1ccc(C#N)nc1	15.8
CC(=O)Nc1ncc(CN2CCC[C@H](Cc3cc(C)nc(C)c3)C2)s1	6.7
CCS(=O)(=O)c1cc2cc(C[C@@](O)(CC(C)(C)c3ccc(F)cc3C(N)=O)C(F)(F)F)[nH]c2cn1	-7.85
c1ccc(N2CCN(Cc3nc4ccccc4[nH]3)CC2)nc1	8.32
Cn1nc(C(=O)NCc2ccc(C(=O)O)cc2)cc1-c1ccc2[nH]ccc2c1	-2.75
O=C(Nc1cnc(Oc2ccc(F)cc2)nc1)N1CCc2ncccc2[C@@H]1c1ccc(F)cc1	37.6
CN(C)c1ncnc(-c2ccc3nc(Nc4cc(CN5CCN(C(=O)CC(F)(F)F)CC5)ccn4)[nH]c3c2)c1Cl	39
N#CN1CC[C@H](C(=O)Nc2nc3c(s2)CN(C(=O)CN=[N+]=[N-])CC3)C1	5.22
O=C(NS(=O)(=O)c1ccc(NCC2CCOCC2)c([N+](=O)[O-])c1)c1ccc(N2CCN(Cc3ccc(C(F)(F)F)cc3-c3ccc(Cl)cc3)CC2)cc1Oc1cnc2[nH]ccc2c1	-2.34
O=c1nc(-c2ccccn2)sc2ccccc12	34.3
Cc1ccc(-c2cnc([C@@]3(O)CC[C@H](C(=O)O)C(C)(C)C3)s2)cc1Nc1cccc(C(F)(F)F)n1	77.9
O=C(NCc1ncc(C(F)(F)F)cc1Cl)c1ccc2c(c1)C1(CCS(=O)(=O)CC1)[C@@H](C1CC1)N2S(=O)(=O)c1ccc(F)cc1	-2.32
COc1ccc2cc(OCC3(C(=O)O)CN(C(=O)c4ccc(F)cc4)C3)ccc2c1	-0.11
COc1cccc(CNC(=O)c2nc3scc(COCc4ccc(C(=O)O)cc4)c3c(=O)[nH]2)c1	-9.07
CN(C)CC#Cc1ccc(OCCCc2sc(N3CCc4cccc(C(=O)Nc5nc6ccccc6s5)c4C3)nc2C(=O)O)c(F)c1	5.67
CC(=O)N1CCC(c2ccc(C(=O)NC(=N)N)cc2C(F)(F)F)CC1	-8.79
CC1=C(C#N)[C@@H](c2ccc3[nH]nc(C)c3c2)C(C#N)=C(c2ccc(Cl)cc2)N1	-7.44
O=C(O)[C@H]1[C@H](Cn2nnc3ccccc3c2=O)CC[C@@H]1C(=O)c1ccc(OCCC2CCOCC2)cc1	22.8

Repeated from above (series 4):
SMILES	inhibition [%]
N#CN1CC[C@H](C(=O)Nc2nc3c(s2)CN(C(=O)CN=[N+]=[N-])CC3)C1	5.22
O=C(NS(=O)(=O)c1ccc(NCC2CCOCC2)c([N+](=O)[O-])c1)c1ccc(N2CCN(Cc3ccc(C(F)(F)F)cc3-c3ccc(Cl)cc3)CC2)cc1Oc1cnc2[nH]ccc2c1	-2.34
O=c1nc(-c2ccccn2)sc2ccccc12	34.3
Cc1ccc(-c2cnc([C@@]3(O)CC[C@H](C(=O)O)C(C)(C)C3)s2)cc1Nc1cccc(C(F)(F)F)n1	77.9
O=C(NCc1ncc(C(F)(F)F)cc1Cl)c1ccc2c(c1)C1(CCS(=O)(=O)CC1)[C@@H](C1CC1)N2S(=O)(=O)c1ccc(F)cc1	-2.32
COc1ccc2cc(OCC3(C(=O)O)CN(C(=O)c4ccc(F)cc4)C3)ccc2c1	-0.11
COc1cccc(CNC(=O)c2nc3scc(COCc4ccc(C(=O)O)cc4)c3c(=O)[nH]2)c1	-9.07
CN(C)CC#Cc1ccc(OCCCc2sc(N3CCc4cccc(C(=O)Nc5nc6ccccc6s5)c4C3)nc2C(=O)O)c(F)c1	5.67
CC(=O)N1CCC(c2ccc(C(=O)NC(=N)N)cc2C(F)(F)F)CC1	-8.79
